Results from different studies.
Every numbered part comes from another study and shows a few of its results, in no order.

Sample 1
Target: RNA binding protein fox-1 homolog 2, RRM domain, GST-SBP tag (RBFOX2, Homo sapiens, UniProt O43251-10, residues 100-194)
Technique: RNA Bind-n-Seq
Molecule type: RNA
Medium: in vitro
Concentration: 365 nM
Setting: natural RNA segment, single round, ends assumed
Reference: no-protein control
Direction: higher = stronger binding
Shared flanks, not repeated: GGGAGUUCUACAGUCCGACGAUC … UGGAAUUCUCGGGUGCCAA
Construct (chain): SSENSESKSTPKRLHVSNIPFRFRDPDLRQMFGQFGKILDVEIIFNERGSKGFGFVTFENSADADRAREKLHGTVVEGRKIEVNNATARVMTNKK
| Sequence | RBNS enrichment (R) |
| --- | --- |
| UGGUUUUCCAGCCUCGACCCACUGCGCUCACCUGGCACUGCCCCACUUUCUUCACCCUGGGUCUGUUUCAAGCCGGCCAGAGAGCCUUUCCAAAGAGGAAUGAGGCCCAG | 0.308 |
| UAGCCGGUUAUCUAGACCAGUAAGUGGAGUUUUGGACAUGCUGCUGCUGUCAACUCACUGGCUGAAGGAGCACUUCAAGGAAUGGGAGGCCUUUCACUGGGUCCAGCUCU | 0.33 |
| GUUUCCCCUCUUUGGUUCUCAAAUAGCAUAGUUUAAUAACGAGUCAGACCGUAUUACAACAAAAACAAACGUCCCUUUCGUUCCUUGUGAGAUUUUCAUCCAAAGCCACA | 0.44 |
| CUAGUUCCCUUUGGUGAAGGGAAAAAUGAUGAUUUUGCAAGACCUAGAUUUUGGCUUGGUUUCUUGCCUCCUUUUUUGGCAGCCUUCAUCUUCUCAUCUCCCAAACCCCC | 0.362 |
| GGGAGUUCUUUCUAACUAGCCAUCACACCUGUAGCUUUAGUUGCUUUGUGUGGCUUCUGGCCUAGCUUUUCAGAUGAGCCGCCUGGAUUUUUACCUGGCCUGUUCUGAUA | 0.196 |
| UGAGUACACCACUACACGUUGGGUAAAAGCAGGUGGGGCCUUUCUGGUUGGAUUAGGCACCCUUCAUGCCUGCUACCAGGAACUCUCAGAUCUGCUUGCCCCAAACAAAU | 0.377 |
| UGUCCAGGCUCCAGUGUGACAAUGGGUUGAGUCUCCAGGCCCUGGCCAGGACAUCCUGCUAUCAAUCAGAAGGACUUGGACUCUCCUGCAGAGUGCAAGUGUGGGUGUCG | 0.433 |
| AGAUUUUGUGUAGGAAAUGUGCAUAGAGUUUGUAUUUUAUUUUUAUUAGCAGCUGAAAUGCCUUUGGUUUUGGCUUCUCUCUCUCCCUCUCUCUCUCUGUCUCUCCUUCU | 0.843 |
| CUGAGGUCUCAGAAGAGAAACUUGACAGUGUCUGGUCCAUGGGGCUGCUCAGAAAAGCGCUGCUCUUGUAUGUCUCAUUGGUAUUGGAAAAAUAAACCUGUACAACCUGC | 0.432 |
| UUUUGCCAUCCCAAUCUUAAGACUGUCUCAUAAUUACCAUGUUGAGGGAAACGCCCCCAGACUCCUGCUGCCACUGUUUUGUGAACUAAUGAACAUGAGCAGAAGCCUAA | 0.577 |
| AGAGAAAGAACACAGGCUUCCUGGUCUGCCCUCCCCCUCCGCUCACCAGGAGCUAAACUGAGAGGCUAAACUGUGUCAUGAAGCGCGUUGGAAACAGACUUCUGCCUACA | 0.258 |
| GUGCCUUGCCAGAGAGCUUACGAUCUAUAUCUGCUGCUUCAGAGCCUUCCCUGAGGAUGGCUCUGUUCCUUUGCUUGUUAGAAGAGCGAUGCCUUGGGCAGGGUUUCCCC | 0.398 |

Sample 2
Target: Fragile X messenger ribonucleoprotein 1, C-terminal low-complexity region (Fmr1, Mus musculus, UniProt P35922)
Technique: RNA Bind-n-Seq
Molecule type: RNA
Medium: in vitro
Concentration: 200 nM
Setting: whole 134-nt RNA, ends assumed
Added: 150 mM LiCl
Reference: input library
Direction: higher = stronger binding
Library: 7-deaza-guanosine replaces G
Shared flanks, not repeated: GGGAGUUCUACAGUCCGACGAUC … UGGAAUUCUCGGGUGUCAAGG
| Sequence | log2 enrichment |
| --- | --- |
| CAAGUCCUGUGCUACACAUCGUAUGUACCGAAUCGGAAAAAGGAAAAAGGUUUGGAAAGUAUUAUGUUACGCCGUUCGGAUCUGCACUUC | -2.64 |
| CUGUGCUACACAUCGUAUGUACCGAAUCGGGCCCCCCCGGCCCCCCCGGGGCCCCCCCGGGGAAAGUAUUAUGUUACGCCGUUCGGAUCU | 0.252 |
| ACCAUGCAGGUGGGCAUCUUAAAGAAGUGGGGCAAGGGGGGGAUAGGGAGGGGGGUAACACUUUGGGAACAGGUGGUCCCAGGUCGUUUC | 1.3 |
| ACCAUGCAGGUGGGCAUCUUAGGGAAGUGGGGCAAGGGGGGGAUAGGGAGGGGGGUAACACUUUGGGAACAGGUGGUCCCAGGUCGUUUC | 1.37 |
| CACAGACAACACGCACCCACACAGACACAGAGGUAAGGGGUUGGGAUGGGGACAGGGUGCACAGCAGGGCGGGGUAGGACCCCAGCCCCU | 0.262 |
| CAAGUCCUGUGCUACACAUCGUAUGUACCGAAUCGGGAGGGAAAAAAAGGGAGGGAAAGUAUUAUGUUACGCCGUUCGGAUCUGCACUUC | 0.185 |
| AAGUCCUGUGCUACACAUCGUAUGUACCGAAUCGGUUUUGGGUUUUGGGUUUUGGGGAAAGUAUUAUGUUACGCCGUUCGGAUCUGCACU | -0.658 |
| UCCUGUGCUACACAUCGUAUGUACCGAAUCGGAAAAAAAGGAAAAAAAGGGAAAAAAAGGAAAGUAUUAUGUUACGCCGUUCGGAUCUGC | -0.597 |
| CACAGACAACACGCACCCACACAGACACAGACGGAAGGGGUUGGGAUGGGGACAGGGUGCACAGCAGGGCGGGGUAGGACCCCAGCCCCU | 0.378 |
| UCCUGUGCUACACAUCGUAUGUACCGAAUCGGGCCCCCCGGGCCCCCCGGCCCCCCGGGAAAGUAUUAUGUUACGCCGUUCGGAUCUGCA | 0.259 |
| UCAAGUCCUGUGCUACACAUCGUAUGUACCGAAUCGGAAAGGGAAAGGGAAAGGGAAAGUAUUAUGUUACGCCGUUCGGAUCUGCACUUC | -0.625 |

Sample 3
Target: Histone acetyltransferase KAT6A, winged helix 2, GST fusion (KAT6A, Homo sapiens, UniProt Q92794, residues 85-181)
Technique: protein binding microarray
Molecule type: double-stranded DNA, one strand shown
Medium: in vitro
Concentration: not given
Setting: 8-mer, flanks averaged, mean of 2 arrays, mostly near background
Reference: not given
Direction: higher = stronger binding
Target sequence (chain): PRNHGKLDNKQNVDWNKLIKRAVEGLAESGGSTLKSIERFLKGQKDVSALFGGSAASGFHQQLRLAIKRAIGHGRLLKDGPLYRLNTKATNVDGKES
| Sequence | E-score |
| --- | --- |
| GCTTACGA | -0.0613 |
| AGGCCCTA | -0.0138 |
| AGTCGTCG | -0.242 |
| CCTCTCCC | -0.00203 |
| AGCGGGAG | -0.0615 |
| ATCCTCCA | -0.0396 |
| GGCTATTA | -0.121 |
| AGCCGAGC | 0.197 |
| AGAGAGTG | -0.154 |
| CATTAAAC | -0.102 |
| GCCGTACA | -0.0593 |
| ATAAGACG | -0.279 |
| ACCACTGC | -0.15 |
| CCCCTTGC | -0.0478 |
| GCAAAATA | 0.124 |
| ACACCGCC | 0.159 |
| AGTACCGG | -0.0881 |
| ACTAGTAA | -0.078 |
| ATCTTCCC | 0.0478 |
| ATACGCTG | -0.0261 |

Sample 4
Target: RING finger protein unkempt homolog, zinc fingers 1-6, GST-SBP tag (UNK, Homo sapiens, UniProt Q9C0B0, residues 30-357)
Technique: RNA Bind-n-Seq
Molecule type: RNA
Medium: in vitro
Concentration: not given
Setting: RNA with constant flanks, human and mouse sites, ends assumed
Reference: input RNA pool
Direction: higher = stronger binding
Shared flanks, not repeated: GGGAGUUCUACAGUCCGACGAUC … CAACAGAGGAUUGAGCAUCA
Residues (chain): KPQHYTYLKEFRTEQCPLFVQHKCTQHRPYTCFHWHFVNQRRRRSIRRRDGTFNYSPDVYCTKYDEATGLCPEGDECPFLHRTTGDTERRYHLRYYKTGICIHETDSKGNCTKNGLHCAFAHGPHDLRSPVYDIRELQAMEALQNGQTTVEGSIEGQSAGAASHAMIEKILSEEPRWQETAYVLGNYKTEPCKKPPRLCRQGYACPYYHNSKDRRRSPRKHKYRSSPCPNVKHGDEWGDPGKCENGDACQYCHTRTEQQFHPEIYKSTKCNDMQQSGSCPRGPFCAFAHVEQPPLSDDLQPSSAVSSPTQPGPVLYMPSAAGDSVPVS
| Sequence | bound/input enrichment |
| --- | --- |
| GAAAGCCUGCAAGAAACCAAAGCUAGAGAUCUGGAAAUACAACAGGAACUAAAAACUGCUCGUAUGCUAUCAAAAGAACACAAAGAAACUGUUGAUAAACUUAGAGAAAAAAUUUCAGAA | 0.752 ratio |
| CCCAGUUGUGACAUGAUGGAACUAAGGCGCCGUUAUCAAAAUUUGUAUAUACCUAGUGACUUUUUUGAUGCUCAAUUUACAUGGGUGGAUGCUUUCCCUUUGUCAAGACCAUUUCAGCUG | 11.3 ratio |
| GGACUGCAGAAUGGCUCAGACUUGCAGUUCAUCGAAAUGCAGAGAGAUGCCAAUAGACAAAUUAGCGAAUACAAAUUUAAGCUUUCAAAAGCAGAACAGGAUAUAACUACCUUGGAGCAA | 22.3 ratio |
| GAGAGGAAUAUAAUACCAAGAGAAGAAAAGCCUAUUGAGGAUGAAAUUGAAAGAAAAGAAAAUAUUAAGCCCUCUCUGGGAAGUAAAAAGAAUUUAUUAGAAUCUAUACCUACACAUUCU | 1.74 ratio |
| GACAAGUAUUUCGGCAGUGUCUGUGAACUAGAUAUCAUCUUUAAUUUUGAGAAGGCUUAUUUUAUUUUGGAUGAGUUUCUUUUGGGAGGGGAAGUUCAGGAAACAUCCAAGAAAAAUGUC | 0.782 ratio |
| GUCUCCUACACUUGAGGAUCAAGAGCGUCAUUUACUUGUGAAAGUUAUUGAUAGGAUACUGUACAAACUUGAUGACUUAGUUCGUCCAUAUGUGCAUAAGAUCCUCGUGGUCAUUGAACC | 0.19 ratio |
| UGCUUUUGCUAUAAGCAUUAUUGUAAGAGUAUCUCAAGCAGGGGUCGUUACAACCGUGAUUUGGAACAGGAUGAAGCAUUUAUUCCAGUAGGAGAAUCAUUGAAAGACCUGAUUGACCAG | 0.169 ratio |
| UUGCCAAAUUACACCACAGAGGUAUGUUGAUUAAGCACGCUGGUCUUUCCCCUCCCAAGUUAACAUGGGCAAGUCCUGCUCAGGGUGGAGGCAGAAACGGGUGAGACUGUACCCUGCCUG | 0.0685 ratio |
| AAAGGUGACAAGGCUCUUGAUGGCUAUAGUAAAAAAAAGUACGUCUGCAAGUUGCUCUUCAUCUUUCUCCUUGGUCAUGACAUUGACUUUGGACACAUGGAGGCUGUGAACCUGCUGAGU | 0.167 ratio |
| ACUUGGGGCUCUGCAGGACCUUCUCUGUCCAGCGCCCCCUUUCUGUUGUGCGAUUAGUUGUAGCUGCCAUGCUCAGAAUUGCCUUUUGAGAGCUGAAGCAAGGUGCUUACUGUCACCUGA | 0.0956 ratio |
| UUUAAAAGAUGUUUGAAUUGUGUCUUAAUCCUUCAGUGUUUAACUUUCUUCAUUUGCAACAGUGUUGGCACCGUGGUGAUGGGAGGCCUCUGCCUGUGAGGACAGCUAAGGCUGGGUUAU | 0.174 ratio |

Excerpt of the above (sample 1):
| Sequence | RBNS enrichment (R) |
| --- | --- |
| UGGUUUUCCAGCCUCGACCCACUGCGCUCACCUGGCACUGCCCCACUUUCUUCACCCUGGGUCUGUUUCAAGCCGGCCAGAGAGCCUUUCCAAAGAGGAAUGAGGCCCAG | 0.308 |
| UAGCCGGUUAUCUAGACCAGUAAGUGGAGUUUUGGACAUGCUGCUGCUGUCAACUCACUGGCUGAAGGAGCACUUCAAGGAAUGGGAGGCCUUUCACUGGGUCCAGCUCU | 0.33 |
| GUUUCCCCUCUUUGGUUCUCAAAUAGCAUAGUUUAAUAACGAGUCAGACCGUAUUACAACAAAAACAAACGUCCCUUUCGUUCCUUGUGAGAUUUUCAUCCAAAGCCACA | 0.44 |
